Results from different studies.
Protocols differ between the studies behind these lines.
CatSper channel complex: CatSper channel complex (Homo sapiens, UniProt Q7RTX7+Q86XQ3+Q8NEC5+Q96P56)
Sequence of UniProt Q96P56 (whole entry, looked up): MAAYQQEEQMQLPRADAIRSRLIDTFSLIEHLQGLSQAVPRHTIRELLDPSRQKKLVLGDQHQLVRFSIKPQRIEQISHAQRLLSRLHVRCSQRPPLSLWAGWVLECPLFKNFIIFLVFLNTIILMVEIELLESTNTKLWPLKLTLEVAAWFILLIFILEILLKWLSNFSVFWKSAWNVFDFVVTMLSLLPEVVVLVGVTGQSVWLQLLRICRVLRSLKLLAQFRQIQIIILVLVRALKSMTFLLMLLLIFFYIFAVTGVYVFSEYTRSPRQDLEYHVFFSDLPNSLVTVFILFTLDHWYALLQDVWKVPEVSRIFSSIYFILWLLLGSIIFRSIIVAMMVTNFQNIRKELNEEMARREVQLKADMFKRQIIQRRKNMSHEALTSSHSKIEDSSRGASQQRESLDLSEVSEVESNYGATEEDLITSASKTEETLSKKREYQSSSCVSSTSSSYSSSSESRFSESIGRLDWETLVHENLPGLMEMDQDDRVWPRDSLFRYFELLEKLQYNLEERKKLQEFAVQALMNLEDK
env: env (Human immunodeficiency virus 1, UniProt Q75760)
Genome polyprotein protease: Genome polyprotein, protease (Hepatitis C virus genotype 1b, UniProt O92972)
Sequence of UniProt O92972 (whole entry, looked up): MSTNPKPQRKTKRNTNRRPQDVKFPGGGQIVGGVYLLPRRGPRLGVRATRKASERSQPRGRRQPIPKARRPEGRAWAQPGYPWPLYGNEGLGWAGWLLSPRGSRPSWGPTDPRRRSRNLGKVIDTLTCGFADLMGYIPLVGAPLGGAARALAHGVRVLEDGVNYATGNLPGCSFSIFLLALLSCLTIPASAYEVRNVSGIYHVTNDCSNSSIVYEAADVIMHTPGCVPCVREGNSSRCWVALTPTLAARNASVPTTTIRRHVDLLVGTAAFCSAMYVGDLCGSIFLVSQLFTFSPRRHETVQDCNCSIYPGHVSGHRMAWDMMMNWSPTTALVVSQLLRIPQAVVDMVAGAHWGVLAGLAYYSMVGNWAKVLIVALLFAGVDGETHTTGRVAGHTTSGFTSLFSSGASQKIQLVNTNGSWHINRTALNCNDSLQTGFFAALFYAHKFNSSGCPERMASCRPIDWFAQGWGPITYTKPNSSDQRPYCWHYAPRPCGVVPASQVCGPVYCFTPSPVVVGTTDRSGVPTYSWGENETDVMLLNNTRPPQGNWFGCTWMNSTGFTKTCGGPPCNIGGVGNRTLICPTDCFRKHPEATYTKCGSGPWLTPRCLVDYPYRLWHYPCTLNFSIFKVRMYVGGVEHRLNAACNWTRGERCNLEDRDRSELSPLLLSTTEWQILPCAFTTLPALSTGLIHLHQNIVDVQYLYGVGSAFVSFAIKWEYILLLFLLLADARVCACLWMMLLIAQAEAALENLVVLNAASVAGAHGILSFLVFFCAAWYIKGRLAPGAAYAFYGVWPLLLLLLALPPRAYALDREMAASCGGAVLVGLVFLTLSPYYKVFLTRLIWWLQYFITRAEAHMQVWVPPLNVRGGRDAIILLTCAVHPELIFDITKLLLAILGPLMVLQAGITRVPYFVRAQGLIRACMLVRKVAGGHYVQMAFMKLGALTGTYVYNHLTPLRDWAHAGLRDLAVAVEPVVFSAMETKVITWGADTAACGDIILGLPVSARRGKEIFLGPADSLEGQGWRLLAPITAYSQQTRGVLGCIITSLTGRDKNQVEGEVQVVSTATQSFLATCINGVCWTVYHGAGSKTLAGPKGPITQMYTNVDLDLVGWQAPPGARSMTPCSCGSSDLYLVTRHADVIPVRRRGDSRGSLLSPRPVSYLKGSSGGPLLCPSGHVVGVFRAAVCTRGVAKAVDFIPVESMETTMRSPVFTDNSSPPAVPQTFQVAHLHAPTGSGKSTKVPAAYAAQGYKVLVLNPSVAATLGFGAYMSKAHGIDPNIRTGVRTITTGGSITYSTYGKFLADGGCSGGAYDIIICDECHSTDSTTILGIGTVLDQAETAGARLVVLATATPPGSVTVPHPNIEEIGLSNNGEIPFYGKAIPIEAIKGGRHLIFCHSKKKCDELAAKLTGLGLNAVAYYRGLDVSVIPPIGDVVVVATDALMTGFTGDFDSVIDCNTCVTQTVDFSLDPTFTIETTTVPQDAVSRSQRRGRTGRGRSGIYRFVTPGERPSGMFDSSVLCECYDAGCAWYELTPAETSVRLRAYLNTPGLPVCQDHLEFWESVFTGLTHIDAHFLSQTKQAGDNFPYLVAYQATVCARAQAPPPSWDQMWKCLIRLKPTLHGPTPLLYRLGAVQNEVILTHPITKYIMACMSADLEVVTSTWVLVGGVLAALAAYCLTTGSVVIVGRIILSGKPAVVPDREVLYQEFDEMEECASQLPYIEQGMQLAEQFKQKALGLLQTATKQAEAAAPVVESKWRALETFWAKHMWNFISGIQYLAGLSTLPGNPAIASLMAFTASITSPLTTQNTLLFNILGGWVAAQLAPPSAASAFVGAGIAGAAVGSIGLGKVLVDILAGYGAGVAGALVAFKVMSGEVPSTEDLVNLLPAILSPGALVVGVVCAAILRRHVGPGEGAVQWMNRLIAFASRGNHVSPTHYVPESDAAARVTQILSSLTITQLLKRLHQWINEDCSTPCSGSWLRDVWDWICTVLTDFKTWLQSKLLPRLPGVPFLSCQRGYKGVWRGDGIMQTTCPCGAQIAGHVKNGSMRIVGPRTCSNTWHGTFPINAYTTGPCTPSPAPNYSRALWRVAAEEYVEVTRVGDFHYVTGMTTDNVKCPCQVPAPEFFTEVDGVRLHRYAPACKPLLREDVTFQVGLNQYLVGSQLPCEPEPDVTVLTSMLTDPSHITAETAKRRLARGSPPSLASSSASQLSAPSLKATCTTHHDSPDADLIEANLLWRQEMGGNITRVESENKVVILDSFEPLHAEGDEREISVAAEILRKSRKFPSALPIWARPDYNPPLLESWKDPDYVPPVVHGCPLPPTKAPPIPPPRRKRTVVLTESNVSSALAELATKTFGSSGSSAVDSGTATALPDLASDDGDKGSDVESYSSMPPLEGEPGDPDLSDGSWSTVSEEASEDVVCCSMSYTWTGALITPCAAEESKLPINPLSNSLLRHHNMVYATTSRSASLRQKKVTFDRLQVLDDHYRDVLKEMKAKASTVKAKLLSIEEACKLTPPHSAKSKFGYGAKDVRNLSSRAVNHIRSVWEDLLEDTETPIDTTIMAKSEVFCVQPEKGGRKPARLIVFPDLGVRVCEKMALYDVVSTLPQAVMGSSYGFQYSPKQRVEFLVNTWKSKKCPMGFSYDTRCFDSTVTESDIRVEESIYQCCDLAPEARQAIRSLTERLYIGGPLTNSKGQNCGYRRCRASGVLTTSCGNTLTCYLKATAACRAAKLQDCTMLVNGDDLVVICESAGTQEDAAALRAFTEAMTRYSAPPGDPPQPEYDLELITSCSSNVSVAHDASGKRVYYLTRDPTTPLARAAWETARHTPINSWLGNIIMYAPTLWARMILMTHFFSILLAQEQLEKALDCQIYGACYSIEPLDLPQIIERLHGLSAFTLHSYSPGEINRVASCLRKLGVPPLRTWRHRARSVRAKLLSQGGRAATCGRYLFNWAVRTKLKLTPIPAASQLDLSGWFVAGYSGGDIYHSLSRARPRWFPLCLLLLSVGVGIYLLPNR
PIK3CB: Phosphatidylinositol 4,5-bisphosphate 3-kinase catalytic subunit beta isoform (PIK3CB, Homo sapiens, UniProt P42338)
Sequence of UniProt P42338 (whole entry, looked up): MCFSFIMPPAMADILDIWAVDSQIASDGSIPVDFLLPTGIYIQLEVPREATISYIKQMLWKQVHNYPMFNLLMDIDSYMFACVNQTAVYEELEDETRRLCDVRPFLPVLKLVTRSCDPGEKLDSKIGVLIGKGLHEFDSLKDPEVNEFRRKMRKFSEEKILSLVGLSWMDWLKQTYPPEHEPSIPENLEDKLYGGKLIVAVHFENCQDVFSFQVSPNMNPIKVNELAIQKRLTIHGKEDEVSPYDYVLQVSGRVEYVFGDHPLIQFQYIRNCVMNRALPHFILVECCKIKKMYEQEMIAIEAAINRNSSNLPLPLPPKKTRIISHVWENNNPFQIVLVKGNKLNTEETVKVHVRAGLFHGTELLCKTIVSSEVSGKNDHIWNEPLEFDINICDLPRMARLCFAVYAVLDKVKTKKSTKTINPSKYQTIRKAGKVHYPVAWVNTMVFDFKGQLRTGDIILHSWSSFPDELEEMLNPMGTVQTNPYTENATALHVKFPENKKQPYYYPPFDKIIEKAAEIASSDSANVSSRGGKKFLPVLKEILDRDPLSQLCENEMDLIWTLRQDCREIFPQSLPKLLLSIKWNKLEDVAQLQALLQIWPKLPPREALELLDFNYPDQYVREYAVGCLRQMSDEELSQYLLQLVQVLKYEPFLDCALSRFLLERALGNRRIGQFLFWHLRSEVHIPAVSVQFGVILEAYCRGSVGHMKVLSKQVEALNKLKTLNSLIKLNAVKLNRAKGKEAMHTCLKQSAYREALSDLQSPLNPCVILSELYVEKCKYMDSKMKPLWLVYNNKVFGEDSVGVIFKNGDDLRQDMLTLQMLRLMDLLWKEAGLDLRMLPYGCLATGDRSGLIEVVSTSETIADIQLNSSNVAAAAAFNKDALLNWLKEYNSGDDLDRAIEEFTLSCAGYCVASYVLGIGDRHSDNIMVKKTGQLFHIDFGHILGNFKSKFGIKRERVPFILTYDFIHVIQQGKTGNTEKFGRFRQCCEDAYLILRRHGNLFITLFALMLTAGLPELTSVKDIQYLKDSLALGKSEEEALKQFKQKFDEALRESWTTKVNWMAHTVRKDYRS
HDAC3: Histone deacetylase 3 (HDAC3, Homo sapiens, UniProt O15379)
Sequence of UniProt O15379 (whole entry, looked up): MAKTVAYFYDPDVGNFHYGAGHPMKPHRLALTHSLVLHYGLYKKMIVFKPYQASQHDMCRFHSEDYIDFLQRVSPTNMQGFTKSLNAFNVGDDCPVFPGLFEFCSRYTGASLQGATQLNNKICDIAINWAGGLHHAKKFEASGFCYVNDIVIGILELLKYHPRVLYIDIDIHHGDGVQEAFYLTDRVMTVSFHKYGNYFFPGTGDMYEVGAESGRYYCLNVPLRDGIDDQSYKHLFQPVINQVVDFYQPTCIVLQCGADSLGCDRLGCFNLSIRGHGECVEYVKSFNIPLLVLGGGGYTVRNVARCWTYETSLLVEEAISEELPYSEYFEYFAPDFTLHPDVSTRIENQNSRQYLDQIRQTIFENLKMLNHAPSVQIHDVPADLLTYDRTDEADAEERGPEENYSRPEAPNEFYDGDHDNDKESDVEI
SLC10A1: Hepatic sodium/bile acid cotransporter (SLC10A1, Homo sapiens, UniProt Q14973)
PSMB6: Proteasome subunit beta type-6 (PSMB6, Homo sapiens, UniProt P28072)

| Compound | target | test | test system | setting | IC50 [µM] |
| --- | --- | --- | --- | --- | --- |
| c1ccc2c(CN3CCC(N4CCCCCC4)CC3)c[nH]c2c1 | CatSper channel complex | calcium influx, inhibitor, FLIPR | human sperm | added: high pH, high potassium | 12 |
| CNCc1ccc2c(c1)N(C(=O)OCC(F)(F)F)[C@H](CNC(=N)N)[C@H]2NC(=O)C(=O)Nc1ccc(Cl)c(F)c1 | env | HIV-1 infection | Cf2Th-CD4/CCR5 cells | 48 h | 0.7 |
| CC1Cc2ccccc2N1C(=O)CN1CCN(Cc2ccccc2)CC1 (centres unmarked) | DRD4 (Homo sapiens, UniProt P21917) | antagonist | – | – | 0.631 |
| CCn1nc(Cl)c2c1-c1cnc(N)c(c1)O[C@H](C)c1cc(F)ccc1-c1nn(C)cc1C2 | NTRK3 (Homo sapiens, UniProt Q16288) | enzyme activity, inhibitor, radiometric | – | – | 0.138 |
| COc1cc(F)c(-c2cc(Cn3cnc4c(N)ncnc43)c(N3CCC[C@](N)([C@H](O)C(F)F)C3)cn2)cc1F | NSD1 (Homo sapiens, UniProt Q96L73) | enzyme activity, inhibitor | – | – | 0.095 |
| Cc1cc(C)c(S(=O)(=O)N(CC(=O)O)c2ccc(Nc3ccnc(N4CCCC4)n3)cc2)c(C)c1 | CDK1 (Homo sapiens, UniProt P06493) | enzyme activity, inhibitor | – | – | > 100 |
| CC(=O)OC1CCC2(C)C(CCC3(C)C2CC=C2C4C(C)C(C)CCC4(C(=O)O)CCC23C)C1(C)C (centres unmarked) | UGT1A10 (Homo sapiens, UniProt Q9HAW8) | enzyme activity, inhibitor | – | – | > 100 |
| C=CCn1c(NN)nc2cc3ccccc3cc2c1=O | Genome polyprotein protease | enzyme activity, inhibitor, FRET | – | – | 15.8 |
| Cc1nc(N(C)c2ccc3c(c2)/C(=C/c2ccccc2)C(=O)N3C)c2ccccc2n1 | PIK3CB | enzyme activity, inhibitor, ADP detection | – | – | 0.38 |
| O=C1Nc2ccccc2C12NC(c1ccc(F)cc1)C1(C(=O)Nc3ccccc31)N2Cc1ccc(F)cc1 (centres unmarked) | PIK3CB | enzyme activity, inhibitor, ADP detection | – | – | 0.173 |
| CCN(CC)CCNc1ccc(C)c2sc3ccccc3c(=O)c12 | Bcl-2-related protein A1 (Mus musculus, UniProt Q07440, C113S/P104K) | ligand displacement, FP | – | – | 300 |
| CN1CCCC1C(=O)NC(Cc1ccc(-n2cccn2)cc1)B(O)O (centres unmarked) | Proteasome subunit beta type-10 / Proteasome subunit beta type-3 (Homo sapiens, UniProt P40306+P49720) | β2i activity, inhibitor | – | immunoproteasome, added: Ac-KQL-AMC | > 10 |
| CC(=O)N1c2ccc(-c3ccc(CNC(=O)c4cn5cc(-c6cnc(N)nc6)nc(N6CCOCC6)c5n4)cc3)cc2CC[C@@H]1C | PRKDC (Homo sapiens, UniProt P78527) | enzyme activity, inhibitor, radiometric | – | – | ~0.5 |
| Cc1nn(-c2cccc(N)c2)c(=O)c2cnc(Nc3ccc(N4CCNCC4)cc3)nc12 | PRKCA (Homo sapiens, UniProt P17252) | enzyme activity, inhibitor | – | – | > 10 |
| O=C1/C(=N\c2ccc(Cl)cc2Br)c2ccccc2N1Cc1ccccc1 (mixture of isomers) | PIK3CB | enzyme activity, inhibitor, ADP detection | – | – | 0.328 |
| Cc1c(COc2cc(OCc3cccc(C#N)c3)c(CN3CCCC[C@@H]3C(=O)O)cc2Cl)cccc1-c1cccc(OCCCCCCC(=O)NO)c1 | HDAC3 | enzyme activity, inhibitor | – | – | 0.0144 |
| C[C@H](CCC(=O)O)[C@H]1CC[C@H]2[C@@H]3[C@@H](O)C[C@@H]4C[C@H](O)CC[C@]4(C)[C@H]3CC[C@]12C | SLC10A1 | preS1 binding, inhibitor, fluorescence | HepG2-hNTCP-C4 | added: myristoylated preS1(2-48)-TAMRA | > 80 |
| COc1cc(-n2cc3cc(F)cc(C(N)=O)c3n2)cc(Cl)c1C1CC(O)(CCO)CC(C)=C1C (centres unmarked) | PARP1 (Homo sapiens, UniProt P09874) | enzyme activity, inhibitor, radiometric | – | – | 0.00027 |
| CNCc1ccc2c(c1)N(C(=O)OCc1c(F)c(F)c(F)c(F)c1F)[C@H](CNC(=N)N)[C@H]2NC(=O)C(=O)Nc1ccc(Cl)c(F)c1 | env | HIV-1 infection | Cf2Th-CD4/CCR5 cells | 48 h | 0.77 |
| CCN(CC)CC(=O)Nc1cccc(-n2cc(-c3ccc4ccc(-c5cn(-c6cccc(NC(=O)CN(CC)CC)c6)nn5)cc4c3)nn2)c1 | Cyclin-dependent kinase 1, with cyclin B (CDK1, Homo sapiens, UniProt P06493) | – | – | – | > 10 |
| O=C(Nc1cc(-c2cccnc2)[nH]n1)C1CCC1 | Cyclin-dependent kinase 2, with cyclin A (CDK2, Homo sapiens, UniProt P24941) | radiometric | – | added: 1 µM ATP | 6.6 |

| Compound | target | test | test system | setting | IC50 [µM] |
| --- | --- | --- | --- | --- | --- |
| O=C(/C=C/c1cccc(OS(=O)(=O)Oc2ccc(Br)cc2)c1)NO | Histone deacetylase 3, with NCoR2 DAD (HDAC3, Homo sapiens, UniProt O15379) | enzyme activity, inhibitor, fluorogenic | – | added: substrate 20 µM | 0.093 |
| CC(C)(C)n1ncc2c(=O)n(Cc3cccc(F)c3)c(NCc3ccc(F)cn3)nc21 | PDE5A (Homo sapiens, UniProt O76074) | enzyme activity, inhibitor | – | – | 0.192 |
| CC(C)C[C@H](NC(=O)[C@H](Cc1ccc(CN)cc1)NC(=O)[C@H](Cc1ccccc1)N=[N+]=[N-])C(=O)N[C@@H](CC1CCC2CCCCC2C1)C(=O)[C@@]1(C)CO1 (some centres unmarked) | PSMB6 | competitive ABPP | Raji cell lysate | – | > 10 |
| COc1ccc(-c2coc3cc(O)cc(O)c3c2=O)cc1 | HSD3B1 (Homo sapiens, UniProt P14060) | enzyme activity, inhibitor | – | – | 18.5 |
| C[C@@H](O)[C@@H]1NC(=O)[C@H](CCCCN)NC(=O)[C@@H](Cc2ccc(NC(N)=O)cc2)NC(=O)[C@H](Cc2ccc(O)cc2)NC(=O)[C@H](NC(=O)[C@H](Cc2ccc(Cl)cc2)NC(=O)CN2CCN(CC(=O)O)CCN(CC(=O)O)CCN(CC(=O)O)CC2)CSSC[C@@H](C(=O)N[C@@H](Cc2ccc3ccccc3c2)C(N)=O)NC1=O | SSTR5 (Homo sapiens, UniProt P35346) | ligand displacement, radioligand | – | – | > 1 |
| O=c1c2cc3ccccc3cc2[nH]c(=S)n1CCc1ccccc1 | Genome polyprotein protease | enzyme activity, inhibitor, FRET | – | – | 31.6 |
| C[C@H](CCC(=O)NCCS(=O)(=O)O)[C@H]1CC[C@H]2[C@@H]3[C@@H](O)C[C@@H]4C[C@H](O)CC[C@]4(C)[C@H]3CC[C@]12C | SLC10A1 | – | – | – | 23.8 |
| Fc1ccc(Nc2nc(NC3CCCCC3)c3ccccc3n2)cc1F | ADRB2 (Homo sapiens, UniProt P07550, V152G) | β-arrestin2 recruitment, antagonist, BRET | HEK293 | mutant V152G, added: isoprenaline 1 µM | 1 |
| O=C1/C(=N\c2ccc(Cl)cc2Br)c2ccccc2N1C(=O)c1ccccc1Br | PIK3CB | enzyme activity, inhibitor, ADP detection | – | – | 0.0746 |
| Cc1nc(Nc2ccc3c(c2)/C(=C/c2ccccc2)C(=O)N3)c2ccccc2n1 | PIK3CB | enzyme activity, inhibitor, ADP detection | – | – | 0.012 |
| CN1CCN(c2ccc(-c3cncc(Cl)c3N3CCC4(CCNC4=O)CC3)cc2)CC1 | Cyclin-dependent kinase 8, with cyclin C (CDK8, Homo sapiens, UniProt P49336) | – | – | – | 0.005 |
| Nc1ncc(-c2cc(-c3cnn(CC(F)(F)F)c3)ncc2F)nc1C(=O)NC1CNCC(F)C1 (centres unmarked) | MERTK (Homo sapiens, UniProt Q12866) | enzyme activity, inhibitor, radiometric | – | – | 0.052 |
| CC(C)[C@H]1NC(=O)[C@@H](CC(=O)O)NC(=O)[C@H](CC(=O)O)NC(=O)CNC(=O)[C@H](CCCCN)NC(=O)CNC(=O)[C@H](N)CSSC[C@H](C(N)=O)NC1=O | Integrin alpha-V/beta-3 (Homo sapiens, UniProt P05106+P06756) | ligand displacement, flow cytometry | – | – | > 20 |
| CC(C)CN(C)c1nc(N)c(C(=O)N=C(N)N)nc1Cl | CatSper channel complex | calcium influx, inhibitor, FLIPR | human sperm | added: high pH, high potassium | 12 |
| O=C1/C(=N\c2ccc(Cl)cc2)c2ccccc2N1Cc1ccccc1 | PIK3CB | enzyme activity, inhibitor, ADP detection | – | – | 0.0622 |
| C=CC(=O)N1CCN2c3nc(OC[C@@H]4C[C@@H](F)CN4C)nc4cc(-c5nc(N)cc(C)c5C(F)(F)F)c(Cl)c(c34)OC[C@@H]2C1 | GTPase KRas, GDP-bound (KRAS, Homo sapiens, UniProt P01116, G13D) | nucleotide exchange, inhibitor, TR-FRET | – | GDP-bound | 0.63 |
| O=C(CCc1ccc(CNC(C(=O)O)C2CCCCC2)cn1)NO (centres unmarked) | HDAC3 | enzyme activity, inhibitor | – | – | 0.759 |
| Cc1c(COc2cc(OCc3cccc(C#N)c3)c(CNCCO)cc2Cl)cccc1-c1cccc(OCCCCCCC(=O)NO)c1 | HDAC3 | enzyme activity, inhibitor | – | – | 0.0569 |
| CN1CC[C@@H](COc2cnc(C#N)cc2-c2ccn3nc(NC(=O)C4CC4)cc3c2)C1 | SIK2 (Homo sapiens, UniProt Q9H0K1) | enzyme activity, inhibitor | – | – | 0.048 |
| CC(C)C[C@H](NC(=O)[C@H](Cc1ccc(CN)cc1)NC(=O)[C@H](Cc1ccccc1)N=[N+]=[N-])C(=O)N[C@H](C(=O)[C@@]1(C)CO1)C1CCCCC1 | PSMB6 | competitive ABPP | Raji cell lysate | – | > 10 |

For quick reference, copied from above:
| Compound | target | test | test system | setting | IC50 [µM] |
| --- | --- | --- | --- | --- | --- |
| Nc1ncc(-c2cc(-c3cnn(CC(F)(F)F)c3)ncc2F)nc1C(=O)NC1CNCC(F)C1 (centres unmarked) | MERTK (Homo sapiens, UniProt Q12866) | enzyme activity, inhibitor, radiometric | – | – | 0.052 |
| CC(C)[C@H]1NC(=O)[C@@H](CC(=O)O)NC(=O)[C@H](CC(=O)O)NC(=O)CNC(=O)[C@H](CCCCN)NC(=O)CNC(=O)[C@H](N)CSSC[C@H](C(N)=O)NC1=O | Integrin alpha-V/beta-3 (Homo sapiens, UniProt P05106+P06756) | ligand displacement, flow cytometry | – | – | > 20 |
| CC(C)CN(C)c1nc(N)c(C(=O)N=C(N)N)nc1Cl | CatSper channel complex | calcium influx, inhibitor, FLIPR | human sperm | added: high pH, high potassium | 12 |
| O=C1/C(=N\c2ccc(Cl)cc2)c2ccccc2N1Cc1ccccc1 | PIK3CB | enzyme activity, inhibitor, ADP detection | – | – | 0.0622 |
| C=CC(=O)N1CCN2c3nc(OC[C@@H]4C[C@@H](F)CN4C)nc4cc(-c5nc(N)cc(C)c5C(F)(F)F)c(Cl)c(c34)OC[C@@H]2C1 | GTPase KRas, GDP-bound (KRAS, Homo sapiens, UniProt P01116, G13D) | nucleotide exchange, inhibitor, TR-FRET | – | GDP-bound | 0.63 |
